Results from different studies.
Lines come from different studies, so protocols differ. Values joined by “and” are separate records of one study, mostly repeats; a detail may differ. ± marks the error that the study gave. ≈ marks a conversion by molar mass, not a printed value.

CNC(=O)c1cc(Oc2ccc(NC(=O)Nc3ccc(Cl)c(C(F)(F)F)c3)cc2)ccn1  metabolic activity (Aspergillus fumigatus; 20 µM; relative to: untreated): ≥ 80%
CCCC(CCC)C(=O)Nc1ccccc1O  fold change (Artemia franciscana; LC-MS/MS metabolomics, refers to: 1-aminocyclopropanecarboxylic acid; larvae; concentration not given, 24 h, LC10 concentration; relative to: vehicle): 1.67
C=C(CCC=C(C)C)[C@H]1CC[C@H]2[C@@H]3CC=C4C[C@@H](O)CC[C@]4(C)[C@H]3CC[C@]12C  antileishmanial activity (Leishmania mexicana; propidium iodide flow cytometry; promastigotes; concentration not given, 48 h): inactive
CN(C)C(=O)N1CC[C@H](N=C2Nc3cc(F)ccc3N(CC(F)F)c3ccc(Cl)cc32)C1  inhibition (murine hepatitis virus; viral replication, nanoluciferase reporter; DBT; 1 µM; relative to: DMSO vehicle): 10%
N=C(N)NCCC[C@H](NC(=O)[C@H](Cc1c[nH]c2ccccc12)NC(=O)[C@H](CCCNC(=N)N)NC(=O)[C@H](Cc1c[nH]c2ccccc12)NC(=O)[C@H](Cc1c[nH]c2ccccc12)NC(=O)[C@H](Cc1c[nH]c2ccccc12)NC(=O)[C@H](CCCNC(=N)N)NC(=O)[C@H](Cc1c[nH]c2ccccc12)NC(=O)[C@@H](N)CCCNC(=N)N)C(=O)N[C@@H](Cc1ccccc1)C(N)=O  MIC (Candida albicans; broth microdilution; CGMCC 2.209, RPMI 1640-MOPS; 48 h, 30 °C, added: ZnCl2 8 µM): 8 µM
C[C@@H](O)[C@H]1C(=O)N2C(C(=O)O)=C(SCCN=CN)C[C@H]12  MIC (Klebsiella pneumoniae; broth microdilution; parental, KPC-33): 0.5 µg/mL
CN[C@H](CC(C)C)C(=O)N[C@H]1C(=O)N[C@@H](CC(N)=O)C(=O)N[C@H]2C(=O)N[C@H]3C(=O)N[C@H](C(=O)N[C@H](C(=O)O)c4cc(O)cc(O)c4-c4cc3ccc4O)[C@H](O)c3ccc(c(Cl)c3)Oc3cc2cc(c3O[C@@H]2O[C@H](CO)[C@@H](O)[C@H](O)[C@H]2O[C@H]2C[C@](C)(N)[C@H](O)[C@H](C)O2)Oc2ccc(cc2Cl)[C@H]1O  MBC (Staphylococcus epidermidis; MRSE 35984): 3 µM (≈ 4.35 µg/mL)
Nc1ncnc2c([C@@H]3N[C@H](CO)[C@@H](O)[C@H]3O)c[nH]c12  inhibition (Measles morbillivirus; viral replication; Vero 76, Chicago; 0.3 µM): 0%
COC(=O)C1=C(C)NC(C)=C(C(=O)OC(C)(C)CN(C)CCC(c2ccccc2)c2ccccc2)C1c1cccc([N+](=O)[O-])c1 (centres unmarked)  CFU relative (Aspergillus fumigatus; 1.95 µM, 48 h, conidia, added: caspofungin 0.2 µg/mL; relative to: caspofungin alone): 0.524 and 1 and 1.03
Nc1ncnc2c1ncn2[C@@H]1O[C@@H]2COP(=O)(O)O[C@H]3[C@@H](O)[C@H](n4cnc5c(=O)[nH]cnc54)O[C@@H]3COP(=O)(O)O[C@H]2[C@H]1O  fold enrichment (West Nile virus; RNA sequencing, refers to: interactions, butyrophilin family, R-HSA-8851680; HFF-1 cells; concentration not given, upregulated pathway; relative to: WNV-infected untreated cells): 10.2
N#Cc1ccc2[nH]c(O)c(-c3ccc(CN4CCOCC4)cn3)c2c1  metabolic activity (Aspergillus fumigatus; 20 µM; relative to: untreated): ≥ 80%
Nc1ccn([C@@H]2O[C@H](CO)[C@@H](O)C2(F)F)c(=O)n1  selectivity index (human alphaherpesvirus 1; K26 GFP, 3D skin equivalent, air-liquid; relative to: CC50 over IC50): > 62.5
COC(=O)c1ccc2c(ccc3oc([N+](=O)[O-])cc32)c1  MIC90 (Mycobacterium avium subsp. hominissuis; REMA; ATCC 25291): 2 µg/mL (≈ 7.37 µM)
Cc1c(NC(=O)c2ccc(C(C)(C)C)cc2)cccc1-c1cn(C)c(=O)c(Nc2ccc(C(=O)N3CCOCC3)cc2)n1  inhibition (murine hepatitis virus; viral replication, nanoluciferase reporter; DBT; 1 µM, 10 h; relative to: DMSO vehicle): 19%
CC(=O)O[C@H]1C[C@H](O[C@H]2[C@@H](O)C[C@H](O[C@H]3[C@@H](O)C[C@H](O[C@H]4CC[C@@]5(C)[C@H](CC[C@@H]6[C@@H]5C[C@@H](O)[C@]5(C)[C@@H](C7=CC(=O)OC7)CC[C@]65O)C4)O[C@@H]3C)O[C@@H]2C)O[C@H](C)[C@H]1O[C@@H]1O[C@H](CO)[C@@H](O)[C@H](O)[C@H]1O  IC50 (human alphaherpesvirus 1; live-cell GFP imaging; primary human fibroblasts, K26 GFP): 80 nM
CN(c1ccnc(CNc2nc(Nc3ccc4c(c3)CC(=O)N4)ncc2C(F)(F)F)n1)S(C)(=O)=O  inhibition (murine hepatitis virus; viral replication, nanoluciferase reporter; DBT; 1 µM; relative to: DMSO vehicle): 23%
CS(=O)(=O)CCCn1c(Cn2c(=O)n(CC(F)(F)F)c3ccncc32)cc2cc(Cl)ccc21  LS mean viral load change (respiratory syncytial virus; RT-qPCR; hospitalized infants 1-24 months, nasal swab; oral, 9, 6 or 5 mg/kg daily, day 5, high dose by age cohort; relative to: baseline): -3.06 log10 copies/mL
CN[C@H](CC(C)C)C(=O)N[C@H]1C(=O)N[C@@H](CC(N)=O)C(=O)N[C@H]2C(=O)N[C@H]3C(=O)N[C@H](C(=O)N[C@H](C(=O)O)c4cc(O)cc(O)c4-c4cc3ccc4O)[C@H](O)c3ccc(c(Cl)c3)Oc3cc2cc(c3O[C@@H]2O[C@H](CO)[C@@H](O)[C@H](O)[C@H]2O[C@H]2C[C@](C)(N)[C@H](O)[C@H](C)O2)Oc2ccc(cc2Cl)[C@H]1O  MIC90 (Enterococcus faecalis and Enterococcus faecium): 32 µg/mL (≈ 22.1 µM)
CC1=C(C#N)C(c2ccc3c(c2)c(NC(=O)c2ccccc2C)nn3C)C(C#N)=C(C)N1  inhibition (murine hepatitis virus; viral replication, nanoluciferase reporter; DBT; 1 µM, 10 h; relative to: DMSO vehicle): -7%
COc1ccc2ccc3oc([N+](=O)[O-])cc3c2c1Br  MIC90 (Mycobacterium avium subsp. hominissuis; REMA; ATCC 25291): 1 µg/mL (≈ 3.1 µM)
CN(C)C/C=C/C(=O)Nc1cc2c(Nc3ccc(F)c(Cl)c3)ncnc2cc1O[C@H]1CCOC1  inhibition (murine hepatitis virus; viral replication, nanoluciferase reporter; DBT; 1 µM, 10 h; relative to: DMSO vehicle): 51%
COc1cnc(OC)n2nc(NS(=O)(=O)c3c(OCC(F)F)cccc3C(F)(F)F)nc12  fresh weight inhibition (Eclipta prostrata; greenhouse; postemergence, 150 g ai/ha, 21 days): 93.5 ± 1.64%
CC(=O)N1CCN(c2ccc(OCC3COC(Cn4ccnc4)(c4ccc(Cl)cc4Cl)O3)cc2)CC1 (centres unmarked)  MIC (Candida albicans; broth microdilution; 17546, RPMI 1640-MOPS; 48 h, 30 °C): 32 µM
Cc1c([N+](=O)[O-])oc2ccc3ccccc3c12  MIC90 (Mycobacterium avium subsp. hominissuis; REMA; ATCC 25291): 4 µg/mL (≈ 17.6 µM)
N=C(N)NCCC[C@H](NC(=O)CN)C(=O)N[C@@H](Cc1c[nH]c2ccccc12)C(=O)N[C@@H](CCCNC(=N)N)C(=O)N[C@@H](Cc1c[nH]c2ccccc12)C(=O)N[C@@H](Cc1c[nH]c2ccccc12)C(=O)N[C@@H](Cc1c[nH]c2ccccc12)C(=O)N[C@@H](CCCNC(=N)N)C(=O)N[C@@H](Cc1c[nH]c2ccccc12)C(=O)N[C@@H](CCCNC(=N)N)C(=O)N[C@@H](Cc1c[nH]c2ccccc12)C(N)=O  MIC (Candida albicans; broth microdilution; CGMCC 2.209, RPMI 1640-MOPS; 48 h, 30 °C, added: NH4Cl 6 µM): 8 µM
CN1CCN(c2cnc3c(C4CCN(C(=O)c5ccc(OC(F)(F)F)cc5N)CC4)ncnc3c2)CC1  inhibition (murine hepatitis virus; viral replication, nanoluciferase reporter; DBT; 1 µM, 10 h; relative to: DMSO vehicle): 23%
COc1c([N+](=O)[O-])oc2ccc3ccccc3c12  MIC90 (Enterobacter cloacae; REMA): > 32 µg/mL
Cn1cc(C2=C(c3ccc(Cl)cc3Cl)C(=O)NC2=O)c2ccccc21  metabolic activity (Aspergillus fumigatus; 20 µM; relative to: untreated): ≥ 80%
Cc1c[nH]c(-c2cnc(NCCNc3ccc(C#N)cn3)nc2-c2ccc(Cl)cc2Cl)n1  inhibition (murine hepatitis virus; viral replication, nanoluciferase reporter; DBT; 1 µM, 10 h; relative to: DMSO vehicle): 12%
N=C(N)NCCC[C@H](NC(=O)CN)C(=O)N[C@@H](Cc1c[nH]c2ccccc12)C(=O)N[C@@H](CCCNC(=N)N)C(=O)N[C@@H](Cc1c[nH]c2ccccc12)C(=O)N[C@@H](Cc1c[nH]c2ccccc12)C(=O)N[C@@H](Cc1c[nH]c2ccccc12)C(=O)N[C@@H](CCCNC(=N)N)C(=O)N[C@@H](Cc1c[nH]c2ccccc12)C(=O)N[C@@H](CCCNC(=N)N)C(=O)N[C@@H](Cc1ccccc1)C(N)=O  MIC (Candida albicans; CGMCC 2.209; no added salts): 8 µM
CCCCN(Cc1ccccc1)C(=O)c1ccc(S(=O)(=O)Nc2ccccc2)cc1  inhibition (murine hepatitis virus; viral replication, nanoluciferase reporter; DBT; 1 µM, 10 h; relative to: DMSO vehicle): 10%
CC(C)C[C@H](NC(=O)[C@H](CCCNC(=N)N)NC(=O)[C@H](Cc1c[nH]c2ccccc12)NC(=O)[C@H](CCCNC(=N)N)NC(=O)[C@H](Cc1c[nH]c2ccccc12)NC(=O)[C@H](Cc1c[nH]c2ccccc12)NC(=O)[C@H](Cc1c[nH]c2ccccc12)NC(=O)[C@H](CCCNC(=N)N)NC(=O)[C@H](Cc1c[nH]c2ccccc12)NC(=O)[C@H](CCCNC(=N)N)NC(=O)CN)C(N)=O  MIC (Candida albicans; broth microdilution; CGMCC 2.209, RPMI 1640-MOPS; 48 h, 30 °C, added: NH4Cl 6 µM): 64 µM
